Measurements from different studies.
Every numbered part comes from another study and shows a few of its results, in no order.

Sample 1
Target: Histone acetyltransferase KAT6A, winged helix 1, GST fusion (KAT6A, Homo sapiens, UniProt Q92794, residues 1-85)
Technique: protein binding microarray
Molecule type: double-stranded DNA, one strand shown
Medium: in vitro
Tested at: not given
Notes: 8-mer, flanks averaged, mean of 2 arrays, mostly near background
Relative to: not given
Direction: higher = stronger binding
Measurement: E-score
Residues (chain): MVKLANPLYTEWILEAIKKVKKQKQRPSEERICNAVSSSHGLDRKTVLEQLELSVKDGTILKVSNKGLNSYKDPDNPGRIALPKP
TGGACGAA: -0.141
AACCCGGT: 0.299
CAGAGTCC: -0.0947
CACAACTG: -0.204
AGCTGGTC: -0.182
CCCACGCC: 0.0567
TCAGAACA: -0.121
TACATAAA: -0.161
TGGTAACA: -0.0659
GGCCGAGA: 0.175
CCAGCTCA: -0.22
CGCCCCCA: 0.117
ATATCTAG: -0.184
GGTCTGAA: -0.146
ACCACGCT: 0.0385
CGAATCTA: -0.0624
ATTATTGC: 0.0428
ACCCCTGG: -0.149
AGAACCCA: -0.28
GTGGGGTA: -0.0959
CGTCCTTA: 0.107
CTGGATCC: 0.00703
CGCTCCAC: 0.135
GGCTTAAA: 0.111
GGTGACCA: -0.143

Sample 2
Target: RING finger protein unkempt homolog, zinc fingers 1-6, GST-SBP tag (UNK, Homo sapiens, UniProt Q9C0B0, residues 30-357)
Technique: RNA Bind-n-Seq
Molecule type: RNA
Medium: in vitro
Tested at: not given
Notes: RNA with constant flanks, ends assumed
Relative to: input RNA pool
Direction: higher = stronger binding
Measurement: bound/input enrichment
Target sequence (chain): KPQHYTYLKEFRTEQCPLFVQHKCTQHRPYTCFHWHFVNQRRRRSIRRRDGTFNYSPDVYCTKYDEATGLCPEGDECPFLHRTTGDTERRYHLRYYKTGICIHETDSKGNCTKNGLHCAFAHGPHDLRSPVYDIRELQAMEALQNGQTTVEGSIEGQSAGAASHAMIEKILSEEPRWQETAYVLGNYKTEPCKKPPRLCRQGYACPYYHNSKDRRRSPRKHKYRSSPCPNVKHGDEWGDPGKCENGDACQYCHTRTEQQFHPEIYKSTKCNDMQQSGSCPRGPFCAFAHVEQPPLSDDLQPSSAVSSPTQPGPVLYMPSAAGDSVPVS
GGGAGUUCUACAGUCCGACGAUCGAGCUUAAAGAAGUGGAGCCCAAAUUAGCCGCCUGGAUCCAAAAACUUAAUAGCUUUGGCUCCGAUGCCACAGGAACUUUCUUUUCUCGUUAUGGAGCAUCUCUUAAACUGCUUGAUUUUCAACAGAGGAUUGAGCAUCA: 0.548 ratio
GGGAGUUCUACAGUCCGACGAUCUCUUAACUUAUUCAUUUAACUUAUUUUUAUAGCUAGAUAAAUAUUGUUAGUCUUAGACAACCGCUCACAUUUUUUGAGAAGCAUGCCCUCCCUGUCCAUUUGUCUUAUAACAUGACCCAGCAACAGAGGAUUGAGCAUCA: 11 ratio
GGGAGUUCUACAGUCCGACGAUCUAGAUACAUAUAUAUUUGCUUGAAGAAUCACCAAGCAAAUUGGUGAGAGGGUCUUUUCCAACCGAAUUUACACCUCCAUUUGUUGUGUUGUCUUGCACUUCCCAAUGUUGAUGUCUCUAUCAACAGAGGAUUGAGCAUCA: 0.434 ratio
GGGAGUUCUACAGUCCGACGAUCCCAGUGAGAAAAAGAGUGCUGGAAAAACGUGGAGACGACUUUAAAAAGGAGGGGAAAAUUUACCGAUUAAGGACUCAAGAUGAUGGUGAAGAUGAAAACAACACUUGGAAUGGAAAUUCCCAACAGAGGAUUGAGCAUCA: 0.342 ratio
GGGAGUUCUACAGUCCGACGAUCGGGGACAGUGUUGGGAUUGUCAAGGAAAAAGGGGUAGGAAGGAAGGUGGAGGGAUUGAUCCCGUACCAGGGAGAAUAUUCCACUGAACUGUGAUUCUAUGGCUUGGGGCGGAGGGUGGGGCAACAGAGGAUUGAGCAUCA: 0.465 ratio
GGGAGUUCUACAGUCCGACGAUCUGUGACAAGCUUUAUACUUGCCGCUUGUGUCAUGAUAACAAUGAAGAUCAUCAACCCGAUCGCUUUAAAGUGAAGGAAGUGCAGUGCAUAAACUGUGAAAAAAUUCAACAUGCCCAACAGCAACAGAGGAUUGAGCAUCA: 0.0729 ratio
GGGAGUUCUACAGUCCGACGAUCUGGCUACUAUAAAACUAUGUACCACUCUCAGAAUAUUCUUAGGCUUUUUUUUUUUCAAGUUACCGAUUUGCUUAAAGUGAGGUUUUUUGGUGUGUGCUUUUUUGUUGUCUUUUGACCCUUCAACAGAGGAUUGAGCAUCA: 19.3 ratio
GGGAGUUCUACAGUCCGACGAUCCUUUGUGUUCAUGGUGGACUUUCACCAGAAAUACACACACUGGAUGAUAUUAGGAGAUCCGACCGAUUCAAAGAGCCACCUGCAUUUGGACCAAUGUGUGACUUGUUAUGGUCCGAUCCUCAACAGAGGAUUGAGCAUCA: 0.176 ratio
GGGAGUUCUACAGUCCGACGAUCACAAUUGCUUUGCUUGGUUACCUGAAACACUACCGAAAUAUUCCUGGACCUCACAUGGUUUCCGUUCCAAAGUCUACUUUACACAACUGGAUGAAUGAAUUUAAACGAUGGGUCCCAUCUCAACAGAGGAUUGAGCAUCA: 0.146 ratio
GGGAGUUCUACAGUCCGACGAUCAAGCACUCAAAGCAAAGAAAGAAGAUGGGAAUAAAGCAUUUAAGGAAGGAAAUUACAAACCCGCAUAUGAACUGUACACAGAAGCCCUGGGGAUAGACCCCAACAAUAUAAAAACAAAUGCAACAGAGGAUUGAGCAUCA: 0.533 ratio
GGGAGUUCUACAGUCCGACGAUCAAACUCUCUAGCAAAACGACUGCUAAGUUAUCCACUAGUGCUAAAAGAAUUCAGAAGGAGCCCGCAGAGAUAACCCUUGAUCCUCCUCCUAACUGCAGUGCUGGGCCUAAAGGAGAUAACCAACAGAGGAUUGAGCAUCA: 0.549 ratio

Sample 3
Target: Sal-like protein 4, full length isoform B (SALL4, Homo sapiens, UniProt Q9UJQ4-2, residues 1-616)
Technique: universal PBM
Molecule type: double-stranded DNA, one strand shown
Medium: in vitro
Tested at: not given
Notes: 8-mer, flanks averaged, mean of replicates
Direction: higher = stronger binding
Measurement: E-score
Construct (chain): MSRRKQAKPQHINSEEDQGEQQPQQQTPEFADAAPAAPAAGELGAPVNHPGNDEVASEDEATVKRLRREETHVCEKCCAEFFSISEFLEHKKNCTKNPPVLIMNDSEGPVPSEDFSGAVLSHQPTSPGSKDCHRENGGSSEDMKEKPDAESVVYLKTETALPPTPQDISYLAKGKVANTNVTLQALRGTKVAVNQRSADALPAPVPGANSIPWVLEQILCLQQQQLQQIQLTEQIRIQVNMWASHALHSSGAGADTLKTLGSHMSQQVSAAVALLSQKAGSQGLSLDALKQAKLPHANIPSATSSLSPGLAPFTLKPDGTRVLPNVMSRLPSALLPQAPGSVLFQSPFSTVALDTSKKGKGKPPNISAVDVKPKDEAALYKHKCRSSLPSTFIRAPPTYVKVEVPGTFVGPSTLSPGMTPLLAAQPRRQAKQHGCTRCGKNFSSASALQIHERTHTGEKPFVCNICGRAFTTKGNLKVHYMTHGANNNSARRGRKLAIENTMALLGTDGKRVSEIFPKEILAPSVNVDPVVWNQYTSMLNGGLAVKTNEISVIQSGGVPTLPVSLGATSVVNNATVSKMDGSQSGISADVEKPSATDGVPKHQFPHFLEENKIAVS
AGATCGCA: -0.133
ACCCCTCG: -0.169
ACGAAAAT: 0.343
AGTGTCAA: -0.00495
CTTAGGTC: -0.17
CGCTTTCA: 0.095
AGAATACA: 0.192
GTACTGGA: -0.026
ACCAATAA: 0.254
GCTATTTA: 0.264
GAGGTTGC: -0.233
GCAATTGC: 0.226
ACTGTTAG: -0.126
AAACTCAG: -0.0628
GCGTCAGC: -0.21
CGAGTATA: 0.155

Sample 4
Target: RNA binding protein fox-1 homolog 2, RRM domain, GST-SBP tag (RBFOX2, Homo sapiens, UniProt O43251-10, residues 100-194)
Technique: RNA Bind-n-Seq
Molecule type: RNA
Medium: in vitro
Tested at: 365 nM
Notes: natural RNA segment, single round, ends assumed
Relative to: no-protein control
Direction: higher = stronger binding
Measurement: RBNS enrichment (R)
Target sequence (chain): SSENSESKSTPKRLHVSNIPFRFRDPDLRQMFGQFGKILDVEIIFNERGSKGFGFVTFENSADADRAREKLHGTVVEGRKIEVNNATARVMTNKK
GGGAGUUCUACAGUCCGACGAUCGCCUGCUUCUUCAUCACCUUAAUUUCUGCCAUAACCUGGACUUCGCUGACUGUGUGACUGCCCUGCUCCCUCUGUUCAUCUUAGCCCCAGCCCUCGUCCUCUUUCUGUGAUGGAAUUCUCGGGUGCCAA: 2.46
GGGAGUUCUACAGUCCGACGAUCCAAGAACUUGUUAACCCUCCCUUAGCCCCUGCCCAUCCAAAGCUGGGCACACGCCUCAGAGCUGCCACAUGCUAGGGACAAACGCUACUGCCACAGGAAAACAGUGGUAGUGGAAUUCUCGGGUGCCAA: 0.306
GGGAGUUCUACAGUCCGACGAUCAGACAUUGAGACAUUGUAUUUUGCCUUAGCAGGGAUGAGUUGGUCUCUCCUGGCUGGGCCAUCCCAUCCCCAAUCUGGUUCUUGCACACUCAGGCCUAAUUCCCUCUGCAUGGAAUUCUCGGGUGCCAA: 2.96
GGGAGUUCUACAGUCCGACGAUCACGCCACCAUGAAGCCUCAAAAGGUUCAGUAUUAAGGGUUUUAACCGAAAAGAGUUUAACCAGCCCAACUGUGCCAUCCCUGCCUCCACUUCAGAGGGAUGGAGAAAGAAUGGAAUUCUCGGGUGCCAA: 0.543
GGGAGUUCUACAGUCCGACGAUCACUGUUAUGUUUGUAUAAUAGAACAGUAAUCAUUUAUUAUAAUCUAGGCAAGUUGUAAAUAAAUUCAUAAUUCAAACAGCCAGUAUAUAUGCAUAUAUGAGUGUUAUAUUUGGAAUUCUCGGGUGCCAA: 0.605
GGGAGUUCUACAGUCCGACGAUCGGGGUGGUCAACCUGUGUCCCCUCUGAGCCGUUAUGCCAAAGGUCACUAAGGACAUUUAGAAUCCCCAUCCAUCCAUCCAUCCAUCCAUCCAUCCAUCCAUUCAUCCAUCUGGAAUUCUCGGGUGCCAA: 0.948
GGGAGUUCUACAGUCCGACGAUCGGCCAUGUCCUGGCCCCGUCUCCACCAACCUUUGUGUGACAAAAACAAGGACAAAUUCCUGCUACUAAGACAUGCUGUUAACUCAGUCUGACUGGAAGAAUUUAGGACCAUGGAAUUCUCGGGUGCCAA: 0.288
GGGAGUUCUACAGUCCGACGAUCACAGAGUAUUUGCCACAAGAGGAGAGUAUCCCUCCAGCAAAUAAAAGCAAGUUAGAACGGGCUGGAUAGCCAAAGAGGCAGCCAUUCGGACCUAGGAAGUUGGGGUCUGUUGGAAUUCUCGGGUGCCAA: 0.719
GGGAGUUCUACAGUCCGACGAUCUAAAAACUAGUAGGCUGUGGAGUGCGCUUCCUGUUUGUGUCAUCUGGUCGUAGAACCUUUUCCAAACAGAAGCAUCUGCCUUUGGCUGUUCUGUGACCUUUGAAGCCAGUUGGAAUUCUCGGGUGCCAA: 0.365

For quick reference, copied from above (sample 3):
GCTATTTA: 0.264
CGCTTTCA: 0.095
AAACTCAG: -0.0628
GCGTCAGC: -0.21
